Measured values gathered from unrelated publications.
Protocols differ between the studies behind these lines. Numbers after ± are the reported error.
Chain of UniProt P47872 (whole entry, looked up): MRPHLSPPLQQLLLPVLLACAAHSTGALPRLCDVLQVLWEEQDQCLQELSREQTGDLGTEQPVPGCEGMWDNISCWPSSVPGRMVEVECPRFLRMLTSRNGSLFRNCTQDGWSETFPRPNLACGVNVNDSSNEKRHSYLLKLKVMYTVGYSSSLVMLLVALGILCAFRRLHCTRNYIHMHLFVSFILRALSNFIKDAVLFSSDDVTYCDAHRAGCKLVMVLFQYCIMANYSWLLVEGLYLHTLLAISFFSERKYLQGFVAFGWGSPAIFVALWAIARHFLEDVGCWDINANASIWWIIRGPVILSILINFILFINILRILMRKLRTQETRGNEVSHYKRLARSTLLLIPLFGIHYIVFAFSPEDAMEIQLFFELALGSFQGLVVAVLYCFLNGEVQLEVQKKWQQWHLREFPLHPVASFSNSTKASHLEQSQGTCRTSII
Chain of UniProt P50052 (whole entry, unmodified, looked up): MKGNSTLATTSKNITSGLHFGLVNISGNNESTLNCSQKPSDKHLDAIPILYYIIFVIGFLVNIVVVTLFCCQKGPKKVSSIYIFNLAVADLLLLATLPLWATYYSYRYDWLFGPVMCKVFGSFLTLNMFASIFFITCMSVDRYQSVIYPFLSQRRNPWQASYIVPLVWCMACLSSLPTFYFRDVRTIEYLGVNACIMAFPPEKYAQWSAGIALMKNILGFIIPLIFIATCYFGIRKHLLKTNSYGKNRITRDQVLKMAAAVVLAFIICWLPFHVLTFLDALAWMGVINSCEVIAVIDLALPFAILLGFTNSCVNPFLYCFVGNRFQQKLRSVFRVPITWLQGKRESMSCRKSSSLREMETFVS

CN1CCC[C@]1(C)/C=C/S(=O)(=O)NC(=O)Nc1c2c(cc3c1CCC3)CCC2 has an inhibition of greater than 90% (IL-1β release, ex vivo whole blood; human, whole blood; oral, 400 mg single dose, 24 h, with: LPS and ATP).
Cc1csc(NC(=O)CN2CCC(O)CC2)n1 — result for “DPPH radical scavenging”: 17.3% (0.1 mM, 1 h).
Under protein level, CCOP(=O)(CC(=O)Nc1ccc(S(=O)(=O)N(CC(N)=O)c2ccc(N(CC(N)=O)S(=O)(=O)c3ccc(OC)cc3)c3ccccc23)cc1)OCC is recorded as “increased” (western blot, refers to: nuclear Nrf2; normal mice, hippocampus and cortex; oral, 40 mg/kg once daily, 60 days).
Under “log2 fold change”, C=C(c1cc(F)c(C(=O)O)c(F)c1)c1cc2c(cc1C)C(C)(C)CCC2(C)C is recorded as 1.93 (RNA sequencing, refers to: Inmt mRNA; rat, brain; dose not given, 24 h, single dose; relative to: vehicle).
NS(=O)(=O)Nc1ncnc(OCCOc2ncc(Br)cn2)c1-c1ccc(Br)cc1 has a Vmax of 1250 ± 107 pmol/min/mg (metabolite formation; female Beagle dog, liver microsomes; 500 mg/kg daily for 4 weeks).
With CC(C)(O)c1ccc(N2Cc3c(ccnc3-c3ccc(F)cc3OCC(F)(F)F)C2=O)cc1 the glucosylsphingosine level was 36 ± 3% (Gaucher disease mouse model, plasma; 30 mg/kg, 2 months once daily; relative to: vehicle).
For CCCC[C@H](NC(=O)[C@@H](NC(=O)[C@H](CC(=O)O)NC(=O)[C@H](CCC(N)=O)NC(=O)[C@H](CC(C)C)NC(=O)[C@H](CC(C)C)NC(=O)[C@H](CCCN)NC(=O)[C@H](CCCNC(=N)N)NC(=O)[C@H](C)NC(=O)[C@H](CO)NC(=O)[C@H](CC(C)C)NC(=O)[C@H](CCC(N)=O)NC(=O)[C@H](CC)NC(=O)[C@H](CC(C)C)NC(=O)[C@@H](NC(=O)[C@H](CCCN)NC(=O)[C@H](CCCNC(=N)N)NC(=O)[C@H](Cc1ccc(O)cc1)NC(=O)[C@H](CO)NC(=O)[C@H](CC(N)=O)NC(=O)[C@@H](NC(=O)[C@H](Cc1ccccc1)NC(=O)[C@@H](NC(=O)[C@H](C)NC(=O)[C@H](CC(=O)O)NC(=O)[C@@H](C)NC(=O)[C@H](Cc1ccc(O)cc1)NC)[C@@H](C)CC)[C@@H](C)O)C(C)C)[C@@H](C)CC)C(=O)N[C@@H](CC(=O)O)C(=O)N[C@@H](CCCNC(=N)N)C(=O)NCC, “serum GH level” read 252 ± 33.3 ng/mL (GH release, ELISA; male Sprague-Dawley rat, anaesthetised, serum; subcutaneous, 3 µg/kg, 15 min).
NCCCC[C@H](NC(=O)[C@H](CCCCN)NC(=O)[C@@H](N)CCCCN)C(=O)NCC(=O)NCC(=O)NCCCCCCCCNC(=O)COc1ccc(-c2ccccn2)cc1 — result for “cellular uptake of iridium”: 7.72 ± 0.68 fmol/cell (Jurkat; 25 µM, 1 h, 37 °C).
The writhing count of COc1ccc2c(c1)c(CC(=O)OCOC(C)=O)c(C)n2C(=O)c1ccc(Cl)cc1 is reported as 14.3 ± 1.43 (BALB/c mice, acetic acid writhing; intraperitoneal, 10 mg/kg, 20 min count).
For CCCc1nc2ccc(N(Cc3ccco3)C(=O)c3ccccc3)cc2c(=O)n1Cc1ccc(-c2ccccc2-c2nnn[nH]2)cc1, the Ki was 0.00269 µM (Type-2 angiotensin II receptor (AGTR2, Homo sapiens, UniProt P50052, T178A); ligand displacement, radioligand; cell membranes).
COc1cc([C@@H]2c3cc4c(cc3[C@@H](OCc3cc(-c5ccc(C#N)cc5)no3)[C@H]3COC(=O)C23)OCO4)cc(OC)c1OC (some centres unmarked) has an IC50 of 4.85 µM (tubulin polymerisation, inhibitor).
CCCC[C@H](NC(=O)[C@@H](NC(=O)[C@H](CC(=O)O)NC(=O)[C@H](CCC(N)=O)NC(=O)[C@H](CC(C)C)NC(=O)[C@H](CC(C)C)NC(=O)[C@H](CCCN)NC(=O)[C@H](CCCNC(=N)N)NC(=O)[C@H](C)NC(=O)[C@H](CO)NC(=O)[C@H](CC(C)C)NC(=O)[C@H](CCC(N)=O)NC(=O)[C@H](CC)NC(=O)[C@H](CC(C)C)NC(=O)[C@@H](NC(=O)[C@H](CCCN)NC(=O)[C@H](CCCNC(=N)N)NC(=O)[C@H](Cc1ccc(O)cc1)NC(=O)[C@H](CO)NC(=O)[C@H](CCC(N)=O)NC(=O)[C@@H](NC(=O)[C@H](Cc1ccccc1)NC(=O)[C@@H](NC(=O)[C@H](C)NC(=O)[C@H](CC(=O)O)NC(=O)[C@@H](C)NC(=O)[C@H](Cc1ccc(O)cc1)NC)[C@@H](C)CC)[C@@H](C)O)C(C)C)[C@@H](C)CC)C(=O)N[C@@H](CC(=O)O)C(=O)N[C@@H](CCCNC(=N)N)C(=O)NC: “serum GH level” 47.7 ± 4.1 ng/mL (GH release, ELISA; male rat, anaesthetised, serum; intravenous, 1 µg/kg, 0 min).
The tissue uptake of [64Cu+2].c1ccc(CNCc2ccc(CN3CCCN4CCNCCCN(CC4)CC3)cc2)nc1 is reported as 33.4 ± 3.03 %ID/g (CXCR4; NOD/SCID mouse, U87 and U87-stb-CXCR4 xenografts, kidney; iv, 120 min, ex vivo).
Under “serum GH level”, CCCC[C@H](NC(=O)[C@@H](NC(=O)[C@H](CC(=O)O)NC(=O)[C@H](CCC(N)=O)NC(=O)[C@H](CC(C)C)NC(=O)[C@H](CC(C)C)NC(=O)[C@H](CCCN)NC(=O)[C@H](CCCNC(=N)N)NC(=O)[C@H](C)NC(=O)[C@H](CO)NC(=O)[C@H](CC(C)C)NC(=O)[C@H](CCC(N)=O)NC(=O)[C@H](CC)NC(=O)[C@H](CC(C)C)NC(=O)[C@@H](NC(=O)[C@H](CCCN)NC(=O)[C@H](CCCNC(=N)N)NC(=O)[C@H](Cc1ccc(O)cc1)NC(=O)[C@H](CO)NC(=O)[C@H](CCC(N)=O)NC(=O)[C@@H](NC(=O)[C@H](Cc1ccccc1)NC(=O)[C@@H](NC(=O)[C@H](C)NC(=O)[C@H](CC(=O)O)NC(=O)[C@H](C)NC(=O)[C@H](Cc1ccc(O)cc1)NC)[C@@H](C)CC)[C@@H](C)O)C(C)C)[C@@H](C)CC)C(=O)N[C@@H](CC(=O)O)C(=O)NCCCCNC(=N)N is recorded as 25.3 ± 3.9 ng/mL (GH release, ELISA; male Sprague-Dawley rat, anaesthetised, serum; subcutaneous, 3 µg/kg, 0 min).
COc1ccc(CNc2nc(-c3ccc(OC)cc3)cc(C(F)(F)F)n2)cc1 has an EC50 of 27 µM (Secretin receptor (SCTR, Homo sapiens, UniProt P47872); cAMP, agonist).
For N#Cc1ccc(-c2cc(=O)c3ccc4[nH]c(C(F)(F)F)nc4c3o2)cc1, latency AUC read “decreased” (Morris water maze; 5xFAD mice; dose not given, 5 acquisition days; relative to: vehicle).
O=c1c(OCc2ccccc2)c(-c2ccc([N+](=O)[O-])cc2)oc2ccccc12 — result for “serum alanine aminotransferase”: 42.8 ± 3 IU (diabetic rat; 7.5 mg/kg, p-nitrophenyl β-glucoside induced).
C=C1C(=O)OC2CC3=C[C@@H](C/C(C)=C/C(OC(=O)Cc4cccc5ccccc45)[C@H]12)OC3=O (some centres unmarked): “Ki67 and VEGF expression” “inhibited” (immunohistochemistry; SCID mouse, MDA-MB-231 xenograft, lung; dose not given, 71 days after cell injection).
For CCCC[C@H](NC(=O)CCCCCCCNC(=O)CN1CCN(CC(=O)O)CCN(CC(=O)O)CC1)C(=O)N[C@H]1CC(=O)NCCCC[C@@H](C(N)=O)NC(=O)[C@H](Cc2c[nH]c3ccccc23)NC(=O)[C@H](CCCNC(=N)N)NC(=O)[C@@H](Cc2ccccc2)NC(=O)[C@H](Cc2c[nH]cn2)NC1=O [copper-64 labelled], the tissue uptake was 0.74 ± 0.23 %ID (C57 mice, intestine; intravenous, 0.37 MBq, 24 h).
For C[n+]1cn(C2OC(COP(=O)([O-])OP(=O)(O)OP(=O)(O)OCC3OC(n4cnc5c(=O)[nH]c(N)nc54)C(O)C3O)C(O)C2O)c2nc(NCc3cc(-c4ccccc4)no3)[nH]c(=O)c21 (centres unmarked), “relative inhibitory potency” read 15.7 fold (cap-dependent translation, inhibitor; rabbit reticulocyte lysate; concentration not given; relative to: m7GpppG).
CC[C@H]1[C@@H](O)[C@@H]2[C@H](CC[C@]3(C)[C@@H]([C@H](C)CCOS(=O)(=O)[O-])CC[C@@H]23)[C@@]2(C)CC[C@@H](O)C[C@@H]12.[Na+] gave a ballooning score of 0.7 ± 0.1 (histology; ob/ob NASH mouse model, liver; oral, 3 mg/kg once daily, before treatment, baseline of 8 week study, scale 0 to 2; direction not given).
For CCCCCCCCCCCC(=O)NCCC(=O)N[C@H](CCCNC(=N)N)C(=O)N[C@H](CCCNC(=N)N)C(=O)N[C@H](CCCNC(=N)N)C(=O)N[C@H](CCCNC(=N)N)C(=O)N[C@H](CCCNC(=N)N)C(=O)N[C@H](CCCNC(=N)N)C(=O)N[C@H](CCCNC(=N)N)C(=O)N[C@H](CCCNC(=N)N)C(=O)N[C@H](CCCNC(=N)N)C(=O)N[C@@H](CCCCNC(=S)Nc1ccc2c(c1)C(=O)OC21c2ccc(O)cc2Oc2cc(O)ccc21)C(N)=O, the peak area was 59.1% (Jurkat; RP-HPLC fluorescence, refers to: Arg peptide metabolite; culture medium; 6 h).
With CCCCCCCOC(=O)Cc1c(C)n(C(=O)c2ccc(Cl)cc2)c2ccc(OC)cc12 the analgesia was 83.1% (acetic acid writhing test; BALB/c mouse; intraperitoneal, 30 mg/kg; relative to: negative control).
With Cc1ncc([N+](=O)[O-])n1CCOCc1nnc(SCC(=O)c2ccc([N+](=O)[O-])cc2)o1 the DPPH scavenging was 62.3 ± 0.2% (75 µg/mL, 45 min).
For C=CC(=O)N1C[C@H](C)N(c2nc(OC[C@@]34CCCN3C[C@H](F)C4)nc3c(F)c(-c4ccc(F)c5sc(N)c(C#N)c45)c(C(F)(F)F)cc23)C[C@H]1C, “tumour growth inhibition” read 49% (mouse MIA PaCa-2 xenograft; oral, 0.3 mg/kg daily, 28 days).
For O=C1CCN(Cc2ccccc2)CC1C(C[N+](=O)[O-])c1ccccc1 (centres unmarked), “number of writhes” read 55.4 ± 1.05 (mouse acetic acid writhing; 50 mg/kg, with: haloperidol 1 mg/kg pretreatment).
COc1c2c(cc3oc(COC4OC(CO)C(O)C(O)C4O)cc(=O)c13)OC(C(C)(C)O)C2 (centres unmarked) — result for “hot plate latency”: 12.4 ± 1.71 s (analgesic effect; mouse; oral, 2 mg/kg, 2 h).
Cc1ccc(N(CCc2nnc(S)n2N)S(=O)(=O)c2ccccc2)cc1 has an analgesic protection of 81% (tail flick, radiant heat; rat; 200 mg/kg).
With COc1cc(CCC(C)=O)ccc1O the IC50 was greater than 4 µg/mL (mAb 4-AT4; antibody binding, indirect competitive ELISA; with: coating antigen hapten 3-OVA).
With Cc1ccc(C(=O)Nc2ccc(CP(=O)(O)O)cc2CP(=O)(O)O)cc1NC(=O)c1cccc(NC(=O)Nc2cccc(C(=O)Nc3cc(C(=O)Nc4ccc(CP(=O)(O)O)cc4CP(=O)(O)O)ccc3C)c2)c1 the APTT was 45.4 ± 7.2 s (human plasma; 282 µM).
O=c1c(OCc2ccccc2)c(-c2cccc([N+](=O)[O-])c2)oc2ccccc12 — result for “serum alkaline phosphatase”: 206 ± 4.72 IU (diabetic rat; 7.5 mg/kg, p-nitrophenyl β-glucoside induced).
The IC50 of CCCCC/C=C/C(=O)CCc1ccc(O)c(OC)c1 is reported as greater than 4 µg/mL (mAb 4-AT4; antibody binding, indirect competitive ELISA; with: coating antigen hapten 2-OVA).

Excerpt of the above:
NCCCC[C@H](NC(=O)[C@H](CCCCN)NC(=O)[C@@H](N)CCCCN)C(=O)NCC(=O)NCC(=O)NCCCCCCCCNC(=O)COc1ccc(-c2ccccn2)cc1 — result for “cellular uptake of iridium”: 7.72 ± 0.68 fmol/cell (Jurkat; 25 µM, 1 h, 37 °C).
The writhing count of COc1ccc2c(c1)c(CC(=O)OCOC(C)=O)c(C)n2C(=O)c1ccc(Cl)cc1 is reported as 14.3 ± 1.43 (BALB/c mice, acetic acid writhing; intraperitoneal, 10 mg/kg, 20 min count).
For CCCc1nc2ccc(N(Cc3ccco3)C(=O)c3ccccc3)cc2c(=O)n1Cc1ccc(-c2ccccc2-c2nnn[nH]2)cc1, the Ki was 0.00269 µM (Type-2 angiotensin II receptor (AGTR2, Homo sapiens, UniProt P50052, T178A); ligand displacement, radioligand; cell membranes).
